# Results pooled from the literature.
# Compare with care: the assays were run in different laboratories. Several values in a cell are separate wells, animals, samples, runs or records. ± gives the spread as reported.
# Chain of UniProt Q9UHD2 (whole entry, looked up): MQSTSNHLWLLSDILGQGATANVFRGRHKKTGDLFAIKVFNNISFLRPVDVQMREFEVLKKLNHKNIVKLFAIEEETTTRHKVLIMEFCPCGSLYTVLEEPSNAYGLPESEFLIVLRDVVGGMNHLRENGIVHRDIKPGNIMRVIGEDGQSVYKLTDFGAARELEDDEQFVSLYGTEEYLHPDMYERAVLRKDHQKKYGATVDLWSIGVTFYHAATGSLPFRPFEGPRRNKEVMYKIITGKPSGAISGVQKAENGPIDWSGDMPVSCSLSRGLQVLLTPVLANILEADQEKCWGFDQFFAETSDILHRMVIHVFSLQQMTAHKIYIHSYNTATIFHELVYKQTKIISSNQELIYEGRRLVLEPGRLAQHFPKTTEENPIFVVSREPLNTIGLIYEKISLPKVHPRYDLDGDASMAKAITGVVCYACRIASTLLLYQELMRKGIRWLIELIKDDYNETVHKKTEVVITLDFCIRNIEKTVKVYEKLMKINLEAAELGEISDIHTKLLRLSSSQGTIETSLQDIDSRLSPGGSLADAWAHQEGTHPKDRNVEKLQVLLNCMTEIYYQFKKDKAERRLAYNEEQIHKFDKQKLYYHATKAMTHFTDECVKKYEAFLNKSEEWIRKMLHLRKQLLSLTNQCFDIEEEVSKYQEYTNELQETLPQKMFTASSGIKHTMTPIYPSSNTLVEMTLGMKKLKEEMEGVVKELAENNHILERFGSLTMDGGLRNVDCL
SMILES,tested on,test,system,setting,how to read,quantity,result
CSc1cccc(Nc2ncc3cc(-c4c(Cl)cccc4Cl)c(=O)n(C)c3n2)c1,hiPSC-derived cardiomyocytes (iCell),impedance (xCELLigence Cardio),,"concentration not given, 2 h",baseline: control,beat amplitude,104%
CN(Cc1ccc(F)cc1)c1ccc(CO)c(Cl)c1,RBE,"cell viability, CellTiter-Glo",,,,IC50,260 nM
Cc1cc(Nc2ncc(Cl)c(Nc3ccccc3S(=O)(=O)C(C)C)n2)c(OC(C)C)cc1C1CCNCC1,CLB-BAR,"phosphoproteomics LC-MS/MS, refers to: SLC35B3 phosphorylation",,"200 nM, 60 min",baseline: untreated,log2 fold change,-3
COc1ccc(-n2nc(C(C)=O)s/c2=N\N=C(/C)c2ccc(NC(=O)c3ccc(Cl)cc3)cc2)cc1,HepG2,,,0.156 µM,,viability,24.9%
CCCCc1nc(Cl)c(CO)n1Cc1ccc(-c2ccccc2-c2nn[nH]n2)cc1,human PBMC,"RNA-seq, refers to: KREMEN1 mRNA",,"10 µg/mL, 24 h",baseline: untreated control,log2 fold change,2.01
C=Cc1c2[n-]c(c1C)/C=c1\[n-]/c(c(C)c1C=C)=C\c1[n-]c(c(CCC(=O)O)c1C)/C=c1\[n-]c(c(C)c1CCC(=O)O)=C2.[Sn+4],SH-SY5Y,"RNA-seq, refers to: SLC12A8 mRNA",,"5 µM, 5 h",baseline: untreated cells,fold change,2.25
CC(C)NCC(O)c1ccc(O)c(O)c1 (centres unmarked),mouse ventricular cardiomyocytes,,,"dose not given, 0.071 s",,sarcomere length,1.8 µm
CC(C)C[C@@H]1NC(=O)[C@H](CC(C)C)NC(=O)[C@H](Cc2c[nH]c3ccccc23)NC(=O)[C@H](CO)NC(=O)[C@H](Cc2c[nH]c3ccccc23)NC(=O)[C@@H]2CCCN2C(=O)[C@H](CC(C)C)NC(=O)[C@H](Cc2c[nH]cn2)NC(=O)[C@@H]2CCCN2C(=O)[C@H](CC(N)=O)NC(=O)[C@H](C)NC(=O)[C@H](Cc2ccc(O)cc2)NC(=O)[C@H](CS)NC(=O)[C@H](CCCCNC(=O)CN2CCN(CC(=O)O)CCN(CC(=O)O)CCN(CC(=O)O)CC2)NC1=O [lutetium-177 labelled],4T1,flow cytometry,,"concentration not given, 72 h",,viability decrease,53.4 ± 3.01%
CCc1ccc(NC(=O)NCCN2CCc3ccccc3C2)cc1,BV-2,refers to: caspase-8,,"30 nM, with: high glucose",baseline: high glucose,protein level,decreased
COc1cc2c(Oc3ccc(NC(=O)C4(C(=O)Nc5ccc(F)cc5)CC4)cc3F)ccnc2cc1OCCCN1CCOCC1,hiPSC-derived cardiomyocytes (iCell),impedance,,"concentration not given, 24 h",baseline: control,cell index,78.9%
CCN(Cc1cccc(F)c1)c1ccc(CO)c(Cl)c1,RBE,"cell viability, CellTiter-Glo",,,,IC50,160 nM
CCOC(=O)CSc1nc(-c2ccc(Cl)cc2)c2c(NC(=O)c3ccccc3)nnc-2[nH]1,SF-295,SRB,,"10 µM, NCI60 single-dose screen",baseline: untreated,cell growth,94.8%
CN(C)CC(=O)N1CCC(c2ccc(NC(=O)c3nc(C#N)c[nH]3)c(C3=CCCCC3)c2)CC1,hiPSC-derived cardiomyocytes (iCell),impedance (xCELLigence Cardio),,"concentration not given, 2 h",baseline: control,beat rate,90%
c1ccc2[nH]ccc2c1,HCT-8,"RNA-seq, refers to: ANKRD37",,concentration not given,,"mRNA level, LS mean",2.98 counts per million
Cn1cc(Nc2nccc(-c3ccc4c(c3)CN(C3COC3)CC[C@H]4NC(=O)c3cn(C(C)(C)C)nn3)n2)cn1,mouse splenic B cells,refers to: Opioid signalling pathway,,"30 mg/kg, IgD-activated in vivo","baseline: vehicle, direction not given",pathway activation z-score,2.48
Cc1cccc(-c2[nH]c(CNc3ccccc3F)nc2-c2ccc3ncnn3c2)n1,CD8+ T cells from myeloma patient,ELISA,human,0.5 µM,,TNF-alpha production,1.02% and 0.994% and 1.17% and 0.972% and 1.15% and 1.12%
CC(C)C[C@H](NC(=O)C[C@H](O)[C@H](CC(C)C)NC(=O)[C@H](Cc1c[nH]cn1)NC(=O)CNC(=O)[C@@H](NC(=O)[C@H](C)NC(=O)[C@H](Cc1c[nH]c2ccccc12)NC(=O)[C@H](CCC(N)=O)NC(=O)[C@@H](Cc1ccccc1)NC(=O)COCCOCCNC(=O)CCC(C(=O)O)N1CCN(CC(=O)O)CCN(CC(=O)O)CCN(CC(=O)O)CC1)C(C)C)C(N)=O (some centres unmarked) [lutetium-177 labelled],,,"BALB/c nu/nu mice, kidneys","intravenous, 750 pmol, 1 h, with: PA 300 µg",,tissue uptake,4.8 ± 2.2 %ID/g
CCn1cc(-c2cc(Cn3ccnc3)cc3c2CCN([C@H](c2cc(OC)ccn2)C2CC2)C3=O)c(C(F)(F)F)n1,Raji,"cell growth, inhibitor",,120 h,,EC50,> 30000 nM
CN1CCN(c2ccc3[nH]c(-c4ccc5[nH]c(-c6ccc(C(F)(F)F)cc6)nc5c4)nc3c2)CC1,SF-295,SRB,,"10 µM, 48 h",,growth percent,50.9%
O=C1N(Cc2ccccc2Cl)c2ccccc2C12NN=C(c1ccccc1)S2 (centres unmarked),NSCLC cells,MTT,,"concentration not given, 48 h",,viability loss,80 to 90%
CC(C)N=C(N)c1ccc2nc(-c3ccc(OCc4cccc(COc5ccc(-c6nc7ccc(C(N)=NC(C)C)cc7[nH]6)cc5)c4F)cc3)[nH]c2c1,HEK293 cells CMV-luciferase,"reporter gene, CMV-luciferase counter-screen",,concentration not given,baseline: DMSO,remaining activity,99 ± 27%
NC(=O)NOCCCCCCCCCCCC[P+](c1ccccc1)(c1ccccc1)c1ccccc1.O=C([O-])C(F)(F)F,HCT-116,"cell growth, live-cell imaging",,"7.5 µM, control at 90% confluence",,cell confluence,2.27 ± 0.16%
CCN(CC)CCCC(C)Nc1ccnc2cc(Cl)ccc12 (centres unmarked),hiPSC-derived cardiomyocytes,"L-type calcium current, perforated patch clamp",,5 µM,baseline: initial current,relative peak current,0.91 and 0.87 and 0.89 and 0.7
NC(=O)NOCCCCCCCCCCCCCC[P+](c1ccccc1)(c1ccccc1)c1ccccc1.O=C([O-])C(F)(F)F,HCT-116,"cell growth, live-cell imaging",,"0.03 µM, control at 90% confluence",,cell confluence,88.5%
CC[C@@H]1[C@H](F)C(=O)N[C@@H]1COc1nccc2cc(C(N)=O)c(OC)cc12,"TBK1 (Homo sapiens, UniProt Q9UHD2)","ATP probe binding, KiNativ profiling, refers to: Lys1 probe site",THP-1 cell lysate,,,IC50,> 5000 nM
CCn1c2ccc(CNCCOCCOCCOCCC(=O)NCCOc3ccc(CCc4nc5cc(-c6c(C)noc6C)ccc5n4CCN4CCOCC4)cc3F)cc2c2ccc(-c3cc(C)cs3)cc21,NCI-H1299 expressing p53 Y220C,RT-qPCR,,"3 µM, 24 h",baseline: DMSO,BAX mRNA level,no effect
Cn1cc(-c2ccc(-c3cncc(Cl)c3N3CCC4(CCNC4=O)CC3)cc2)cn1,COLO 205,"gene expression, microarray, refers to: VAV3 mRNA",,"concentration not given, 6 h",baseline: untreated cells,log2 fold change,1.16
COc1cnc2cccc(N3CCc4c(cc(Cn5ccnc5C)cc4-c4cn(C)nc4C(F)(F)F)C3=O)c2c1,HEC59,cell growth,,120 h,,EC50,> 30000 nM
COc1nc(NCc2cn(-c3ccc(C(=O)Nc4ccc(C(F)(F)F)cc4)cc3)nn2)nc(OC)n1,HCT-116,annexin V-FITC/PI,,"IC50, 24 h",,necrotic cells,3.95%
OCc1ccc(-c2nn(Cc3ccccc3)c3ccc(F)cc23)o1,RBE,"cell viability, CellTiter-Glo",,,,IC50,960 nM
NC(=O)NOCCCCCCCCCCCCCCCCCCCC[P+](c1ccccc1)(c1ccccc1)c1ccccc1.O=C([O-])C(F)(F)F,HCT-116,"cell growth, live-cell imaging",,"0.3 µM, control at 90% confluence",,cell confluence,14.4 ± 1.21%
OCc1ccc(-c2nn(Cc3ccc(F)cc3)c3ccccc23)o1,RBE,"cell viability, CellTiter-Glo",,,,IC50,1270 nM
Cc1cc(F)cc2c(CCC(=O)N[C@@H]3C(=O)NC[C@H]3O)c(-c3ccc(F)cc3)[nH]c12,,,"mice, APOL1 G2, single copy","oral, 30 mg/kg twice daily, day 7, dosing from day 6, with: IFNγ plasmid injection",,UACR,5530 µg/mg
CCCCCCOC(=O)[C@]1(O)C[C@@H]2O[C@@]1(C)n1c3ccccc3c3c4c(c5c6ccccc6n2c5c31)C(=O)NC4,SK-OV-3,ATP,3D gellan gum culture,"0.1 µM, 4 days",baseline: untreated,relative cell number,82.4%
CCCCN1C[C@H](O)[C@@H](O)[C@@H](O)[C@H]1CO,sample F patient fibroblasts,"Gb3 level lowering, LC-MS/MS, refers to: Gb3 d18:1/24:0",,216 h,,IC50,9600 nM
COc1cc2ncnc(Nc3ccc(Oc4ccccc4)cc3C)c2cc1OC.O=C(O)C(F)(F)F,HepG2 (NRAS Q61L),resazurin,,"concentration not given, 72 h, with: trametinib",direction not given,Bliss synergy score,136%
C=Cc1c(C)c2cc3nc(c(CC(=O)O)c4[nH]c(cc5nc(cc1[nH]2)C(C)=C5CC)c(C)c4C(=O)O)[C@@H](CCC(=O)O)[C@@H]3C,4T1,wound healing,,"concentration not given, laser irradiation",,cell motility,46.3% and 44.6% and 39.1%
Nc1cccc2c1C(=O)N(C1CCC(=O)NC1=O)C2=O (centres unmarked),RPMI-8226,"flow cytometry, refers to: CD138",,concentration not given,baseline: comparator compound alone,surface marker level,189%
CCCCc1oc2ccc(NS(C)(=O)=O)cc2c1C(=O)c1ccc(OCCCN(CCCC)CCCC)cc1,human embryonic stem cell aggregates,"mRNA level, microarray, refers to: ADORA1",,"0.5 µM, 120 h","baseline: untreated, up-regulated",fold change,2 fold
Nc1ncnc2c1ncn2[C@@H]1O[C@H](CO)[C@@H](O)[C@H]1O,activated human T cells,,,100 nM,higher = more IFNγ,IFNγ production,355 a.u. and 382 a.u. and 472 a.u.
Cc1cnc(NC2CCOCC2)nc1-n1cnc(C(=O)NC(CN)c2cc(F)cc(Cl)c2)c1 (centres unmarked),Rec1,flow cytometry,,"1 µM, 72 h",,sub-G0 cells,1.3%
C[C@H](Nc1ccc2c(c1)OCCn1cc(N3C(=O)OC[C@H]3C(F)F)nc1-2)C(N)=O,IM95,"growth rate inhibition, CellTiter-Glo",,120 h,,IC50,1180 nM
OC(CCN1CCCCC1)(c1ccccc1)C1CC2C=CC1C2 (centres unmarked),,resting-state EEG,healthy elderly humans,"oral, 2 mg, eyes open, LS mean",,EEG Beta2-power Fz-Cz,0.9 µV²
NC(=O)NOCCCCCCCCCCCCCCCC[P+](c1ccccc1)(c1ccccc1)c1ccccc1.O=C([O-])C(F)(F)F,HCT-116,"cell growth, live-cell imaging",,"0.3 µM, control at 90% confluence",,cell confluence,81.1%
CCn1cc(-c2cc(Cn3ccoc3=N)cc3c2CCN([C@@H](C)c2cc(OC)ccn2)C3=O)c(C(F)(F)F)n1,Raji,"cell growth, inhibitor",,120 h,,EC50,11700 nM
CC/C(=N\NC(=O)NCc1cccc(O)c1)c1ccc(O)c(C)c1O,SK-OV-3,"Western blot, refers to: phospho-YAP",,"10 µM, 1 h, 2D culture, unit not given",baseline: total YAP,protein level,0.38 ± 0.26
Cc1nn(-c2c(F)cccc2Br)c(C)c1C(=O)Nc1ccc2ccccc2n1,Wnt-HEK293,"Wnt/β-catenin signalling, inhibitor, luciferase reporter",,1 µM,,inhibition,> 70%
COc1cccc(Cn2nc(-c3ccc(CO)o3)c3ccccc32)c1,RBE,"cell viability, CellTiter-Glo",,,,IC50,460 nM
O=C(/C=C/C=C/C=C/C1CCCCC1)NC1=C[C@@](O)(/C=C/C=C/C=C/C(=O)NC2=C(O)CCC2=O)[C@@H]2O[C@@H]2C1=O,IGR-39,"cell growth, CellTiter-Glo",,78 h,,GI50,13300 nM
NC(=O)NOCCCCCCCCCC[P+](c1ccccc1)(c1ccccc1)c1ccccc1.O=C([O-])C(F)(F)F,HCT-116,"cell growth, live-cell imaging",,"1 µM, control at 90% confluence",,cell confluence,83.9%
C=CC1=C(C)c2cc3[n-]c(cc4nc(cc5[n-]c(cc1n2)c(C)c5C=C)C(C)=C4CCC(=O)O)c(CCC(=O)O)c3C.[Zn+2],SH-SY5Y,"RNA-seq, refers to: LDLR mRNA",,"5 µM, 5 h",baseline: untreated cells,fold change,1.9
CC1c2ccccc2CCN1c1ccc(CO)c(Cl)c1 (centres unmarked),RBE,"cell viability, CellTiter-Glo",,,,IC50,190 nM
COc1ccc(NC(=S)N/N=C/c2cccc3cc4ccccc4nc23)cc1,HeLa,TMRE flow cytometry,,"IC50, 48 h, unit not given",baseline: DMSO control,mitochondrial membrane potential,1.8 ± 0.56

# A few entries again:
SMILES,tested on,test,system,setting,how to read,quantity,result
CC/C(=N\NC(=O)NCc1cccc(O)c1)c1ccc(O)c(C)c1O,SK-OV-3,"Western blot, refers to: phospho-YAP",,"10 µM, 1 h, 2D culture, unit not given",baseline: total YAP,protein level,0.38 ± 0.26
OC(CCN1CCCCC1)(c1ccccc1)C1CC2C=CC1C2 (centres unmarked),,resting-state EEG,healthy elderly humans,"oral, 2 mg, eyes open, LS mean",,EEG Beta2-power Fz-Cz,0.9 µV²
CCCCc1nc(Cl)c(CO)n1Cc1ccc(-c2ccccc2-c2nn[nH]n2)cc1,human PBMC,"RNA-seq, refers to: KREMEN1 mRNA",,"10 µg/mL, 24 h",baseline: untreated control,log2 fold change,2.01
CC1c2ccccc2CCN1c1ccc(CO)c(Cl)c1 (centres unmarked),RBE,"cell viability, CellTiter-Glo",,,,IC50,190 nM
O=C1N(Cc2ccccc2Cl)c2ccccc2C12NN=C(c1ccccc1)S2 (centres unmarked),NSCLC cells,MTT,,"concentration not given, 48 h",,viability loss,80 to 90%
CCCCc1oc2ccc(NS(C)(=O)=O)cc2c1C(=O)c1ccc(OCCCN(CCCC)CCCC)cc1,human embryonic stem cell aggregates,"mRNA level, microarray, refers to: ADORA1",,"0.5 µM, 120 h","baseline: untreated, up-regulated",fold change,2 fold
NC(=O)NOCCCCCCCCCCCCCCCCCCCC[P+](c1ccccc1)(c1ccccc1)c1ccccc1.O=C([O-])C(F)(F)F,HCT-116,"cell growth, live-cell imaging",,"0.3 µM, control at 90% confluence",,cell confluence,14.4 ± 1.21%
C=CC1=C(C)c2cc3[n-]c(cc4nc(cc5[n-]c(cc1n2)c(C)c5C=C)C(C)=C4CCC(=O)O)c(CCC(=O)O)c3C.[Zn+2],SH-SY5Y,"RNA-seq, refers to: LDLR mRNA",,"5 µM, 5 h",baseline: untreated cells,fold change,1.9
